Published values collected from several papers.
Lines come from different studies, so protocols differ. ± marks the error that the study gave.

Cc1ccccc1NC(=O)Nc1ccc(CC(=O)N[C@@H](CCCCNC(=O)/C=C/c2cccnc2)C(=O)N[C@@H](CCCC(=O)O)C(=O)NC2(C(=O)NCCOCCOCCOCCOCC(=O)N[C@@H](CCCCNC(=S)Nc3ccc(CCCN(CCN4CCN(CP(=O)(O)O)CCN(CP(=O)(O)O)CC4)CC(=O)O)cc3)C(N)=O)CCCCC2)cc1 [gallium-68 labelled] — tissue uptake (mouse, kidney; intravenous, 2 h post-injection): 11.1 ± 2.7 %ID/g
O=C(O)C[C@H](NC(=O)[C@H](CC(=O)O)NC(=O)[C@H](CC(=O)O)NC(=O)[C@H](CC(=O)O)NC(=O)[C@H](CC(=O)O)NC(=O)[C@H](CC(=O)O)NC(=O)[C@H](CC(=O)O)NC(=O)[C@H](CC(=O)O)NC(=O)[C@H](CC(=O)O)NC(=O)[C@H](CC(=O)O)NC(=O)[C@H](CC(=O)O)NC(=O)[C@H](CCCCNC(=O)c1ccc(C(=O)NCCOCCOB2BBBBBB3BBBB3B2)cc1)NC(=O)CN1CCN(CC(=O)O)CCN(CC(=O)O)CCN(CC(=O)O)CC1)C(=O)O [gallium-67 labelled] — tissue uptake (gamma counting; mouse, ddY, male, 6 weeks old, stomach; intravenous, 37 kBq, 1 h): 0.43 %ID
N=C(N)NCCC[C@H](NC(=O)[C@@H](Cc1ccccc1)NC(=O)[C@H](Cc1c[nH]cn1)NC(=O)CCCc1ccccc1)C(=O)N[C@@H](Cc1c[nH]c2ccccc12)C(=O)NCC(=O)N[C@@H](CCCCNC(=O)CCCCCNC(=O)CN1CCN(CC(=O)O)CCN(CC(=O)O)CCN(CC(=O)O)CC1)C(N)=O [actinium-225 labelled] — liver elimination rate constant (kle) (five-compartment model fit; SCID mice, A-375 and A-375/MC1R xenografts): 0.0002 h⁻¹
CC[C@H](C)[C@H](NC(=O)[C@H](Cc1ccccc1)NC(=O)[C@H](CCC(=O)O)NC(=O)[C@H](CCCNC(=N)N)NC(=O)[C@H](C)NC(=O)[C@H](C)NC(=O)[C@H](CCC(N)=O)NC(=O)[C@H](CCC(=O)O)NC(=O)[C@H](CCC(=O)O)NC(=O)[C@H](CC(C)C)NC(=O)[C@H](Cc1ccc(O)cc1)NC(=O)[C@H](CO)NC(=O)[C@H](CO)NC(=O)[C@@H](NC(=O)[C@H](CC(=O)O)NC(=O)[C@H](CO)NC(=O)[C@@H](NC(=O)[C@H](Cc1ccccc1)NC(=O)[C@@H](NC(=O)CNC(=O)[C@H](CCC(=O)O)NC(=O)[C@H](C)NC(=O)CCc1c[nH]cn1)[C@@H](C)O)[C@@H](C)O)C(C)C)C(=O)N[C@@H](C)C(=O)N[C@@H](Cc1c[nH]c2ccccc12)C(=O)N[C@@H](CC(C)C)C(=O)N[C@H](C(=O)N[C@@H](CCCNC(=N)N)C(=O)NCC(=O)N[C@@H](CCCNC(=N)N)C(=O)N[C@@H](CCCCNC(=O)COCCOCCNC(=O)COCCOCCNC(=O)CC[C@H](NC(=O)CCCCCCCCCCCCCCCCC(=O)O)C(=O)O)C(=O)NCC(=O)NCC(=O)N[C@@H](CO)C(=O)N[C@@H](CCCCNc1c(NCCCCCN(O)C(=O)CCC(=O)NCCCCCN(O)C(=O)CCC(=O)NCCCCCN(O)C(C)=O)c(=O)c1=O)C(=O)O)C(C)C [zirconium-89 labelled] — tissue uptake (ex vivo gamma counting; rat, spleen; subcutaneous, 3 nmol/kg, 72 h, together with: [89Zr]-labelled peptide): 0.27 %ID/g
N=C(N)NCCC[C@@H]1NC(=O)[C@H](CCCCNC(=O)c2ccc(CNC34CNCCNCC(N)(CNCCNC3)CNCCNC4)cc2)NC(=O)[C@@H](Cc2ccc(O)cc2)NC(=O)[C@H](CC(=O)O)NC(=O)CNC1=O [copper-64 labelled] — tumour uptake (microPET imaging; athymic nude mice, male, PC-3 xenograft, PC-3 tumour; intravenous, 0.2 nmol, 7.4 MBq, 2 h): 0.54 ± 0.09 %ID/g
CC(C)C[C@@H]1NC(=O)[C@H](CC(C)C)NC(=O)[C@H](Cc2c[nH]c3ccccc23)NC(=O)[C@H](CO)NC(=O)[C@H](Cc2c[nH]c3ccccc23)NC(=O)[C@@H]2CCCN2C(=O)[C@H](CC(C)C)NC(=O)[C@H](Cc2c[nH]cn2)NC(=O)[C@@H]2CCCN2C(=O)[C@H](CC(N)=O)NC(=O)[C@H](C)NC(=O)[C@H](Cc2ccc(O)cc2)NC(=O)[C@H](CS)NC(=O)[C@H](CCCCNC(=O)CN2CCN(CC(=O)O)CCN(CC(=O)O)CCN(CC(=O)O)CC2)NC1=O [lutetium-177 labelled] — tumour uptake (female BALB/c mice, 4T1 tumour, tumour; intravenous, 4 h, blocking study): 4.87 ± 1.01 %ID
C[C@@H](O)[C@@H](CO)NC(=O)[C@@H](CCCNC(=N)N)NC(=O)[C@@H]1CCCN1C(=O)[C@@H]1CSSC[C@H](NC(=O)[C@H](Cc2ccccc2)NC(=O)CN2CCN(CC(=O)O)CCN(CC(=O)O)CCN(CC(=O)O)CC2)C(=O)N[C@@H](Cc2ccc(O)cc2)C(=O)N[C@@H](Cc2ccccc2)C(=O)N[C@@H](CCC(N)=O)C(=O)N[C@@H](CC(N)=O)C(=O)N1 [gallium-68 labelled] — tissue uptake (healthy Wistar rat, blood; intravenous, 8 MBq, 60 min, individual animals): 1.01 %ID/g
CC(C)[C@@H]1NC(=O)[C@H](Cc2ccccc2)NC(=O)[C@@H]2NC(=O)[C@H](Cc3ccccc3)NC(=O)[C@@H]3CCCN3C(=O)CNC(=O)[C@H](Cc3ccccc3)NC(=O)[C@@H]3CNCCCC[C@@H](C(=O)O)NC(=O)[C@@H]4NC(=O)[C@H](CC(N)=O)NC(=O)CNC(=O)[C@H]([C@@H](O)C(=O)O)NC(=O)[C@H](CSC[C@@H](NC(=O)[C@H](CCC(N)=O)NC(=O)[C@H](CCCCNC(=O)c5ccc(NN)nc5)NC(=O)[C@@H](N)CS[C@H]4C)C(=O)N[C@@H](CS[C@H]2C)C(=O)N3)NC1=O [technetium-99m labelled] — tissue uptake (rat, saline control, blood; intravenous, 2 h after tracer, tracer 2 h after reperfusion): 0.2 ± 0.02 %ID/g

A few entries again:
N=C(N)NCCC[C@@H]1NC(=O)[C@H](CCCCNC(=O)c2ccc(CNC34CNCCNCC(N)(CNCCNC3)CNCCNC4)cc2)NC(=O)[C@@H](Cc2ccc(O)cc2)NC(=O)[C@H](CC(=O)O)NC(=O)CNC1=O [copper-64 labelled] — tumour uptake (microPET imaging; athymic nude mice, male, PC-3 xenograft, PC-3 tumour; intravenous, 0.2 nmol, 7.4 MBq, 2 h): 0.54 ± 0.09 %ID/g
